Assay results collected from several papers.
Protocols differ between the studies behind these lines. Values joined by “and” are separate records of one study, mostly repeats; a detail may differ. ± gives the spread as reported.

`CC[N+]([O-])(CC)CCNC(=O)c1c(C)[nH]c(/C=C2\C(=O)Nc3ccc(F)cc32)c1C`: “serum concentration/dose ratio” 0.006 (human, serum; 50 mg maintenance, median).
`Cc1cc(NC2CCN(C(=O)OC3CCN(C(=O)/C=C/CN(C)C)C3)CC2)n2ncc(C(C)C)c2n1` (centres unmarked) — result for “patients with adverse event”: 7% (Phase I dose escalation CTCAE v4.0, measured: maculo-papular rash; patients with advanced solid tumours; dose not given, QD dosing any grade).
`O=C(O)c1cc(O)c(O)c(O)c1` gave an AUC(0-12 h) of 14.7 ± 2.42 µg·h/mL (rat, plasma; oral, 1000 mg/kg extract, possible metabolite or extract component).
`O=C(Nc1cnccc1Cl)N1CCN(Cc2ccc3c(c2)OC(F)(F)O3)CC1`: “injection site pain incidence” 0% (multiple ascending dose; young men; 10 mg, treatment-emergent adverse events).
Under “plasma Na+ level, median”, `C=CC[C@@H]1/C=C(\C)C[C@H](C)C[C@H](OC)[C@H]2O[C@@](O)(C(=O)C(=O)N3CCCC[C@H]3C(=O)O[C@H](/C(C)=C/[C@@H]3CC[C@@H](O)[C@H](OC)C3)[C@H](C)[C@@H](O)CC1=O)[C@H](C)C[C@@H]2OC` is recorded as 141 mmol/L (Wistar Kyoto rat, male, plasma; ip, 0.5 mg/kg/day, day 18).
`C[Si](C)(C)O[Si](C)(C)C` has a log KOA of 2.69 (2 to 27 µg/L, 28.3 °C).
`Nc1nc(NC2CC2)c2ncn([C@H]3C=C[C@@H](CO)C3)c2n1` gave a drug concentration of 163000 ± 25700 ng/g (Tat+ transgenic mouse, hippocampus; subcutaneous osmotic pump, dose not given, 5 d).
For `CC(C)(C(=O)N1CCOc2c(C#N)cncc2C1)C(F)F`, “accumulation ratio AUC(0-12h)” read 1.45 (human, both sexes, plasma; oral, 15 mg twice daily, multiple ascending dose; reference: day 14 over day 1).
Under “TEAE urine bacteria positive”, `O=C(O)CCC(=O)O.[2H]C([2H])([2H])Oc1cc(C)c2[nH]ccc2c1CN1CC[C@@H](C2CC2)C[C@H]1c1ccc(C(=O)O)cc1` is recorded as 0% (healthy Chinese subjects; 50 mg, single ascending dose).
For `CC(=O)N=S(=O)(O)c1ccc(N/C=C2\C(=O)Nc3ccc4ncsc4c32)cc1`, the logP was 1.01 (octanol/buffer; pH 11).
For `Cc1cc(-c2nccc3c2ccn3CC(=O)Nc2ccc(-c3cnccn3)cn2)ccn1`, “subjects with eye disorders TEAEs” read 12.5% (human; MAD part, 5 mg once daily).
With `COc1ncc(-c2nc3c(n2C(C)C)[C@H](c2ccc(Cl)cc2)N(c2cc(Cl)cn(C)c2=O)C3=O)c(OC)n1` the median Tmax was 3 h (human patients, plasma; oral, 250 mg, high-dose arm, cycle 2 day 1).
For `CN[C@H]1C(=O)N[C@@H]2Cc3ccc(cc3)Oc3cc4cc(c3O[C@@H]3O[C@H](C(=O)O)[C@@H](O)[C@H](O)[C@H]3NC(=O)CCCCCCCCC(C)C)Oc3ccc(cc3Cl)[C@@H](O)[C@@H]3NC(=O)[C@H](NC(=O)[C@@H]4NC(=O)[C@@H](NC2=O)c2cc(cc(O)c2Cl)Oc2cc1ccc2O)c1ccc(O)c(c1)-c1c(O[C@H]2O[C@H](CO)[C@@H](O)[C@H](O)[C@@H]2O)cc(O)cc1[C@@H](C(=O)NCCCN(C)C)NC3=O`, “second intercompartmental clearance” read 0.00996 L/h (population PK model; paediatric patients; reference weight 70 kg).
For `CC[C@H](C)[C@H](NC(=O)[C@H](Cc1ccccc1)NC(=O)[C@H](CCC(=O)O)NC(=O)[C@H](CCCCNC(=O)COCCOCCNC(=O)COCCOCCNC(=O)CC[C@H](NC(=O)CCCCCCCCCCCCCCCCC(=O)O)C(=O)O)NC(=O)[C@H](C)NC(=O)[C@H](C)NC(=O)[C@H](CCC(N)=O)NC(=O)CNC(=O)[C@H](CCC(=O)O)NC(=O)[C@H](CC(C)C)NC(=O)[C@H](Cc1ccc(O)cc1)NC(=O)[C@H](CO)NC(=O)[C@H](CO)NC(=O)[C@@H](NC(=O)[C@H](CC(=O)O)NC(=O)[C@H](CO)NC(=O)[C@@H](NC(=O)[C@H](Cc1ccccc1)NC(=O)[C@@H](NC(=O)CNC(=O)[C@H](CCC(=O)O)NC(=O)C(C)(C)NC(=O)[C@@H](N)Cc1cnc[nH]1)[C@@H](C)O)[C@@H](C)O)C(C)C)C(=O)N[C@@H](C)C(=O)N[C@@H](Cc1c[nH]c2ccccc12)C(=O)N[C@@H](CC(C)C)C(=O)N[C@H](C(=O)N[C@@H](CCCNC(=N)N)C(=O)NCC(=O)N[C@@H](CCCNC(=N)N)C(=O)NCC(=O)O)C(C)C`, the dose-normalised AUC(0-t) was 5840 nmol·h/L/mg (LC-MS/MS; Chinese patients with type 2 diabetes, plasma; subcutaneous, single dose 0.114 mg, up to 840 h, least-squares mean).
With `O=C(O)C[C@H](O)C[C@H](O)/C=C/c1c(C2CC2)nc2ccccc2c1-c1ccc(F)cc1` the AUC(0-12h) was 68.9 nM·h (FVB wild-type mouse, plasma; oral, 5 mg/kg, geometric mean, together with: silymarin 500 mg/kg oral).
`O=C1NCCc2nc(OCc3cccc(F)c3)ccc21` — result for “Irwin test score”: 0 (measured: skin color; Sprague-Dawley rat male; oral, 100 mg/kg, 0 min; reference: baseline, direction not given).
`C[C@@H](Nc1cc(F)cc(F)c1)c1cc(C(=O)N(C)C)cc2c(=O)cc(N3CCOCC3)oc12` — result for “related serious adverse events”: 0% (measured: Fatigue; advanced solid tumour patients; oral, dose not given, dose finding).
`CC(C)(C)c1ccc(O)c(CN(Cc2cc(C(C)(C)C)ccc2O)C2CCC(NC(N)=O)CC2)c1` (centres unmarked): “Cmax fold increase” 2.6 fold (C57BL/6 mice, male, brain; intraperitoneal, 25 mg/kg; reference: 5 mg/kg dose).
With `C=CC(=O)N1CCC(Oc2cc3c(Nc4ccc(Cl)c(Cl)c4F)ncnc3cc2OC)CC1` the CLz/F ratio was 0.43 fold (Sprague-Dawley rat male, plasma; oral, 2 mg/kg, together with: schisandrin A 20 mg/kg daily 1 weeks pretreatment; reference: no pretreatment).
For `COc1ccc(C=CC(=O)O)cc1OS(=O)(=O)O`, the CSF concentration was 12.9 nM (human, cerebrospinal fluid; concentration not given, mean).
Under “participants with TEAE”, `Cc1ccc(Sc2ccccc2N2CCNCC2)c(C)c1` is recorded as 0% (measured: Somnolence; healthy adult men; oral, 5 mg single dose, 10 day).
With `Cc1nc(C)c(-c2ccnc(Nc3ccc(F)cc3)n2)s1` the logP was 3.96 (octanol/buffer, 40 mM buffer; pH 11).
For `C[C@@H]1Cc2c(ccc3[nH]ncc23)[C@@H](c2ccc(NC3CN(CCCF)C3)cn2)N1CC(F)(F)F`, “total brain concentration” read 0 nmol/L (mouse, non-tumour-bearing, brain; oral, dose not given, 7 days daily, together with: fulvestrant s.c.).
`Cc1cc(/C=C/C#N)cc(C)c1Nc1ccnc(Nc2ccc(C#N)cc2)n1` — result for “time to injection-site reaction resolution”: 3 days (human patients, all-treated set; intramuscular, dose not given, long-acting injection, median).
Under “patients with adverse event”, `CNC(=O)c1ccc(-c2cnc3ncc(Cc4ccc5ncccc5c4)n3n2)cc1F` is recorded as 0% (measured: Dizziness; hepatocellular carcinoma patients; oral, 600 mg twice daily, expansion cohort, grade 3-4).
For `O=C(Cc1ccc(OCCN2CCCC2)cc1)Nc1cc(C2CC2)[nH]n1`, the logP was 2.86 (octanol/buffer, 40 mM buffer; pH 11).
Under “half-life geometric mean”, `CCOc1c([C@H](C)n2nc(C)c3c(N)ncnc32)cc(Cl)c(F)c1[C@@H]1CNC(=O)C1` is recorded as 11.1 h (patients, monotherapy; oral, 45 mg once daily, cycle 1 day 15).
`O=C(O)[C@H]1O[C@@H](Oc2cc(O)cc(/C=C/c3ccc(O)cc3)c2)[C@H](O)[C@@H](O)[C@@H]1O`: CSF concentration “not detected” (human, cerebrospinal fluid; dose not given, mean).
For `O=C(Nc1nc2cccc(-c3ccc(CN4CCS(=O)(=O)CC4)cc3)n2n1)C1CC1`, “treatment-emergent adverse events” read 0% (measured: aspartate aminotransferase increased; human rheumatoid arthritis patients; oral, 150 mg once daily, 4 weeks, regardless of relatedness).
The logP of `Cc1cc(C)c(S(=O)(=O)NCc2ccccn2)cc1C` is reported as 2.55 (octanol/buffer; pH 11, known kinase inactives set).
Under “subjects with adverse event”, `CC(C)n1c(Nc2cccnc2)nc2cnc(Nc3ccc(N4CCN(C)CC4)cc3)nc21` is recorded as 0% (measured: hemoglobin increased; healthy male subjects; oral, 150 mg, study, together with: rifampin).
For `CN(C(=O)n1cnc(-c2ccc[n+]([O-])c2)c1)[C@H]1CC[C@H](O)CC1`, the concentration was 9.9 ± 0.5 ng/g (Wistar rat, pons; oral, 10 mg/kg/day of BIA 10-2474, 48 h, repeated 5 days).
For `CNC(=O)c1cc(Oc2ccc(NC(=O)Nc3cc(C(C)(C)C)nn3-c3ccc4ncccc4c3)c(F)c2)ccn1`, “patients with nervous system disorder AE” read 7% (measured: worst grade 2; human; oral, dose not given, cycles 1 and 2, Medium Cmax subgroup).
For `CO[C@@H]1[C@H](OC(=O)N2CC(CCN3CCOCC3)C2)CC[C@]2(CO2)[C@H]1[C@@]1(C)O[C@@H]1CC=C(C)C`, “time to non-quantifiable plasma level” read at most 12 h (human, plasma; subcutaneous, 4.8 mg, single dose).
`CCc1cc2ncc(CN3CCN(c4ccc(C(=O)NC)nc4)CC3)cc2[nH]c1=O`: “Monocytes count ratio” 0.33 (male rat, blood; oral, 50 mg/kg/day, 4 weeks; reference: vehicle control).
`C=CC(=O)NC1CCN(c2ncc3ncnc(Nc4ccc(Oc5ccc6c(c5)ncn6C)c(C)c4)c3n2)CC1` gave a dose-normalised Cmax of 63.5 pmol/L/µg (healthy male volunteers, plasma; intravenous, 10 µg, [14C] microtracer).
`NC1(C(=O)N[C@@H](CCO)c2ccc(Cl)cc2)CCN(c2nc[nH]c3nccc2-3)CC1`: “incidence of Pyrexia” 0% (metastatic CRPC patients; 320 mg b.i.d., any grade, treatment-related, together with: enzalutamide 160 mg daily).
`COc1ccc2[nH]c([S+]([O-])Cc3ncc(C)c(OC)c3C)nc2c1` (centres unmarked) gave an AUC(0-t) of 0.725 ± 0.524 µg·h/mL (healthy Chinese volunteers CYP2C19 IM, plasma; oral, 20 mg single dose, enteric-coated capsules).
`COC(=O)c1ccccc1-c1c2ccc(=O)cc-2oc2c1ccc1cccc(N(C)C)c12` has an emission maximum of 580 nm (HCl 12.5 mM; pH 1.9, 10% DMSO).
Under “incidence of cough”, `CCO[C@H]1CCN(Cc2c(OC)cc(C)c3[nH]ccc23)[C@H](c2ccc(C(=O)O)cc2)C1` is recorded as 14.3% (PNH patients, active haemolysis; oral, 100 mg, 8 weeks, treatment).
For `CCc1cc(C(=O)NC)c2nccc(N3CCc4c(cc(Cn5ccnc5)cc4-c4cn(C)nc4C(F)(F)F)C3=O)c2c1`, “blood MPV change” read -2.79% (Sprague Dawley rats; oral, 100 mg/kg twice daily, 7 days; reference: vehicle).
The Tmax of `CO[C@H]1CC[C@H](N2C(=O)CNc3ncc(-c4ccc(C(C)(C)O)nc4)nc32)CC1` is reported as 1.25 h (patients, plasma; oral, 15 mg, day -1, median).
Under “increase in V1”, `COc1c(OCCCN2CCOCC2)ccc2c1N=C(NC(=O)c1cnc(N)nc1)N1CCN=C21` is recorded as 108% (human; concentration not given, together with: rifampin).
`COc1cc2c(Nc3ccc(Cl)c(Cl)c3F)ncnc2cc1OC[C@@H]1C[C@@H]2CN(C)C[C@@H]2C1`: “total brain concentration” 720 ng/mL (FVB wild-type mouse; oral, 70 mg/kg, 2 h).
For `Cl.[2H]C([2H])([2H])CC(=O)c1cnc(NC(=O)C2CC2)cc1Nc1cccc(-c2ncn(C([2H])([2H])[2H])n2)c1OC`, the half-life was 6.27 h (geometric mean; human; oral, 20 mg once daily, day 1, fasted, liquid, multiple dose).
For `COc1ccnc(C[S+]([O-])c2nc3ccc(OC(F)F)cc3[nH]2)c1OC` (centres unmarked), the dose-normalised Cmax was 5 µg/mL per mg/kg (human; oral, median).
`CCOc1ccc2nc(SCC(=O)Nc3c(C)n(C)n(-c4ccccc4)c3=O)sc2c1` has a logP of 2.95 (octanol/buffer; pH 11, known kinase inactives set).
`Cn1cc([C@H]2C[C@H]3CSC(N)=N[C@@]3(c3ccc(F)cc3F)CO2)cn1` has a CSF concentration of 119 nM (male 129/SVE mouse, CSF; subcutaneous, 10 mg/kg, 3 h).
For `CC(C)N(CCCCOCC(=O)NS(C)(=O)=O)c1cnc(-c2ccccc2)c(-c2ccccc2)n1`, “adverse event incidence” read 4.5% (measured: Haematoma; healthy male human; oral, 200 µg).
For `Oc1ccc(/C=C/c2cc(O)cc(O)c2)cc1`, the cholinesterase was 7 IU/L and 6 IU/L (rat, azoxymethane-injected, blood at sacrifice; 10 mg/kg).
`N#CCC1CCN(c2nc(Nc3ccc(N4CCC(O)CC4)cc3)c3c(=O)[nH]ncc3n2)CC1` has an AUC(0-24 h) of 3.28 µg·h/mL (human, plasma; oral, 80 mg once daily, day 15).
`FC(F)(F)c1ccc(CNc2ccc(Cc3c[nH]c4ncc(Cl)cc34)cn2)cn1` — result for “treatment-related adverse events”: 6% (measured: Hypophosphatemia; patients with advanced solid tumours, non-TGCT cohort; oral, 1000 mg/day, any grade).
For `Cc1nc2c([nH]1)c(=O)n(C)c(=O)n2Cc1ccco1`, the inhibition was 17.6 ± 2.68% (male rat liver microsomes; 40 µM, 3 h, together with: DHA-Na 5 mg/L).
`CCCCC[C@H](O)CC[C@@H]1[C@H]2Cc3cccc(OCC(=O)O)c3C[C@H]2C[C@H]1O` — result for “geometric mean AUC(0-inf)”: 0.00087 µg·h/mL (LC-MS/MS; Japanese PAH patients under 56.7 kg, plasma; inhaled, 54 µg).
`COC(=O)c1ccccc1NC(=O)CSc1nnc(-c2ccc(OC)cc2)n1C` has a logP of 2.73 (octanol/buffer; pH 11, known kinase inactives set).
`CCN1/C(=C/C(C)=O)Sc2ccc(F)cc21` gave a heart rate of 131 ± 11 beats/min (cynomolgus monkey; oral, 100 mg/kg, 0.5 h post-dose).
